Assay results of several laboratories.
Protocols differ between the studies behind these lines. ± marks the error that the study gave.

CC(C)C[C@H](NC(=O)[C@H](Cc1ccc(O)cc1)NC(=O)[C@@H](CCCNC(=N)N)NC(=O)[C@@H](CO)NC(=O)[C@H](Cc1ccccc1)NC(=O)[C@H](CC1CCCCC1)NC(=O)[C@H](CC(=O)O)NC(=O)CCC(C(=O)O)N1CCCN2CCN(CCCN(CC(=O)O)CC2)CC1)C(=O)N[C@@H](Cc1c[nH]c2ccccc12)C(=O)N[C@@H](CO)C(=O)O (stereo partly shown) [copper-64 labelled]
tissue uptake (female NMRI nude mice, blood; 22 h p.i.): 0.2 ± 0.1 %ID/g

CCCC[C@H](NC(=O)CCCCCCCNC(=O)c1ccc(NN)nc1)C(=O)N[C@H]1CC(=O)NCCCC[C@@H](C(N)=O)NC(=O)[C@H](Cc2c[nH]c3ccccc23)NC(=O)[C@H](CCCNC(=N)N)NC(=O)[C@@H](Cc2ccccc2)NC(=O)[C@H](Cc2c[nH]cn2)NC1=O [technetium-99m labelled]
tissue uptake (C57 mouse, B16/F1 melanoma, intestines; intravenous, 0.037 MBq, 0.5 h): 2.43 ± 0.31 %ID

N=C(N)NCCC[C@@H]1NC(=O)[C@H](CCCCNC(=O)CC[C@H](NC(=O)CCOCCOCCOCCOCCNC(=O)CC[C@H](NC(=O)CN2CCN(CC(=O)O)CCN(CC(=O)O)CCN(CC(=O)O)CC2)C(=O)NCCOCCOCCOCCOCCC(=O)N[C@@H](CCC(=O)NCCCC[C@@H]2NC(=O)[C@@H](Cc3ccccc3)NC(=O)[C@H](CC(=O)O)NC(=O)CNC(=O)[C@H](CCCNC(=N)N)NC2=O)C(=O)NCCCC[C@@H]2NC(=O)[C@@H](Cc3ccccc3)NC(=O)[C@H](CC(=O)O)NC(=O)CNC(=O)[C@H](CCCNC(=N)N)NC2=O)C(=O)NCCCC[C@@H]2NC(=O)[C@@H](Cc3ccccc3)NC(=O)[C@H](CC(=O)O)NC(=O)CNC(=O)[C@H](CCCNC(=N)N)NC2=O)NC(=O)[C@@H](Cc2ccccc2)NC(=O)[C@H](CC(=O)O)NC(=O)CNC1=O [indium-111 labelled]
tissue uptake (athymic nude mice, female, U-87 MG glioma xenograft, U-87 MG tumour; intravenous, 3 µCi, 72 h): 2.87 ± 1.45 %ID/g

CCCC[C@H](NC(=O)COCCOCCNC(=O)c1ccc(NN)nc1)C(=O)N[C@H]1CC(=O)NCCCC[C@@H](C(N)=O)NC(=O)[C@H](Cc2c[nH]c3ccccc23)NC(=O)[C@H](CCCNC(=N)N)NC(=O)[C@@H](Cc2ccccc2)NC(=O)[C@H](Cc2c[nH]cn2)NC1=O [technetium-99m labelled]
tissue uptake (C57 mouse, female, B16/F1 melanoma, brain; intravenous, 0.037 MBq, 2 h): 0.03 ± 0.02 %ID/g

CCCC[C@H](NC(=O)CNC(=O)CNC(=O)c1ccc(NN)nc1)C(=O)N[C@H]1CC(=O)NCCCC[C@@H](C(N)=O)NC(=O)[C@H](Cc2c[nH]c3ccccc23)NC(=O)[C@H](CCCNC(=N)N)NC(=O)[C@@H](Cc2ccccc2)NC(=O)[C@H](Cc2c[nH]cn2)NC1=O [technetium-99m labelled]
tissue uptake (C57 mouse, B16/F1 melanoma-bearing, skin; intravenous, 4 h): 0.33 ± 0.12 %ID/g

CSCC[C@H](NC(=O)[C@H](CC(C)C)NC(=O)[C@H](Cc1c[nH]cn1)NC(=O)CNC(=O)[C@@H](NC(=O)[C@H](C)NC(=O)[C@H](Cc1c[nH]c2ccccc12)NC(=O)[C@H](CCC(N)=O)NC(=O)CCCCCNC(=O)CNC(=O)CNC(=O)CNC(=O)CSC(C)=O)C(C)C)C(N)=O [technetium-99m labelled]
tissue uptake (nude mouse, PC-3 xenograft, tumor; 30 min, with: excess unlabelled conjugate): 0.51 ± 0.17 %ID/g

N=C(N)NCCC[C@@H]1NC(=O)[C@H](CCCCNC(=O)CCOCCOCCOCCOCCNC(=O)CC[C@H](NC(=O)CCOCCOCCOCCOCCNC(=O)CC[C@H](NC(=O)CN2CCN(CC(=O)O)CCN(CC(=O)O)CCN(CC(=O)O)CC2)C(=O)NCCOCCOCCOCCOCCC(=O)N[C@@H](CCC(=O)NCCOCCOCCOCCOCCC(=O)NCCCC[C@@H]2NC(=O)[C@@H](Cc3ccccc3)NC(=O)[C@H](CC(=O)O)NC(=O)CNC(=O)[C@H](CCCNC(=N)N)NC2=O)C(=O)NCCOCCOCCOCCOCCC(=O)NCCCC[C@@H]2NC(=O)[C@@H](Cc3ccccc3)NC(=O)[C@H](CC(=O)O)NC(=O)CNC(=O)[C@H](CCCNC(=N)N)NC2=O)C(=O)NCCOCCOCCOCCOCCC(=O)NCCCC[C@@H]2NC(=O)[C@@H](Cc3ccccc3)NC(=O)[C@H](CC(=O)O)NC(=O)CNC(=O)[C@H](CCCNC(=N)N)NC2=O)NC(=O)[C@@H](Cc2ccccc2)NC(=O)[C@H](CC(=O)O)NC(=O)CNC1=O [indium-111 labelled]
tissue uptake (female athymic nude mice, kidney; intravenous, 3 µCi, 4 h, U-87 MG glioma xenograft): 5.55 ± 0.88 %ID/g

N=C(N)NCCC[C@@H]1NC(=O)[C@H](CC(=O)NC23CNCCNCC(N)(CNCCNC2)CNCCNC3)NC(=O)[C@@H](Cc2ccccc2)NC(=O)[C@H](CC(=O)O)NC(=O)CNC1=O [copper-64 labelled]
tissue uptake (Nu/Nu mouse, male, tumour-bearing, lung; intravenous, 10 µCi, 4 h): 0.9 ± 0.33 %ID/g

N=C(N)NCCC[C@@H]1NC(=O)[C@H](CCCCNC(=O)CNC(=O)CNC(=O)CNC(=O)CC[C@H](NC(=O)c2ccc(NN=Cc3ccccc3S(=O)(=O)O)nc2)C(=O)NCC(=O)NCC(=O)NCC(=O)NCCCC[C@@H]2NC(=O)[C@@H](Cc3ccccc3)NC(=O)[C@H](CC(=O)O)NC(=O)CNC(=O)[C@H](CCCNC(=N)N)NC2=O)NC(=O)[C@@H](Cc2ccccc2)NC(=O)[C@H](CC(=O)O)NC(=O)CNC1=O [technetium-99m labelled]
tissue uptake (athymic nu/nu mouse, female, MDA-MB-435 xenograft, tumour; intravenous, 2 µCi, 30 min): 8.48 ± 0.59 %ID/g

N=C(N)NCCC[C@@H]1NC(=O)[C@H](CCCCNC(=O)CC[C@H](NC(=O)CCOCCOCCOCCOCCNC(=O)CN2CCN(CC(=O)O)CCN(CC(=O)O)CCN(CC(=O)O)CC2)C(=O)NCCCC[C@@H]2NC(=O)[C@@H](Cc3ccccc3)NC(=O)[C@H](CC(=O)O)NC(=O)CNC(=O)[C@H](CCCNC(=N)N)NC2=O)NC(=O)[C@@H](Cc2ccccc2)NC(=O)[C@H](CC(=O)O)NC(=O)CNC1=O [indium-111 labelled]
tissue uptake (female athymic nude mice, kidney; intravenous, 3 µCi, 4 h, U-87 MG glioma xenograft): 3.44 ± 0.43 %ID/g

Repeated from above:
N=C(N)NCCC[C@@H]1NC(=O)[C@H](CCCCNC(=O)CNC(=O)CNC(=O)CNC(=O)CC[C@H](NC(=O)c2ccc(NN=Cc3ccccc3S(=O)(=O)O)nc2)C(=O)NCC(=O)NCC(=O)NCC(=O)NCCCC[C@@H]2NC(=O)[C@@H](Cc3ccccc3)NC(=O)[C@H](CC(=O)O)NC(=O)CNC(=O)[C@H](CCCNC(=N)N)NC2=O)NC(=O)[C@@H](Cc2ccccc2)NC(=O)[C@H](CC(=O)O)NC(=O)CNC1=O [technetium-99m labelled]
tissue uptake (athymic nu/nu mouse, female, MDA-MB-435 xenograft, tumour; intravenous, 2 µCi, 30 min): 8.48 ± 0.59 %ID/g
